Published values of several laboratories.
± gives the spread as reported.

| Molecule | cell line | test | system | setting | IC50 |
| --- | --- | --- | --- | --- | --- |
| Nc1nc2sc(CCCCCCc3ccc(C(=O)N[C@@H](CCC(=O)O)C(=O)O)cc3)cc2c(=O)[nH]1 | KB and IGROV-1 | cell growth | – | – | 0.0047 to 0.334 µM |
| CC(C(=O)[O-])C(=O)[O-].CC(C(=O)[O-])C(=O)[O-].NCCN.[Pt+4] | SW480 | cell viability, MTT | – | 96 h | > 200 µM |
| Cc1ccc(NC(=O)CSc2nnc(-c3ccc(NC(=O)c4cccnc4)cc3)o2)cc1 | RAW264.7 | reactive oxygen species, inhibitor, fluorescence | – | LPS-stimulated | 12.1 µM |
| Oc1cccc(CCc2ccccc2)c1 | HL-60 | reactive oxygen species, inhibitor, fluorescence | – | – | 0.012 µg/mL |
| O=C1Nc2ccc(Br)cc2C1n1nc(-c2c(O)c3ccccc3oc2=O)cc1-c1ccc(F)cc1 (stereo not drawn) | A-375 | cell growth or viability, SRB | – | 72 h | 5.85 µM |
| O=c1c2ccccc2c(-c2nnc(SCNc3cccnc3)o2)nn1CNc1cccnc1 | WI-38 | cell growth or viability, MTT | – | 48 h | 58.1 µM |
| CC(=O)c1ccc(NC(=O)CSc2nnc(-c3ccc(NC(=O)c4cccnc4)cc3)o2)cc1 | RAW264.7 | TNF-α release, inhibitor, ELISA | – | LPS-stimulated | 17.9 µM |
| O=c1[nH]c2ccccc2nc1/C=C/c1ccccc1Cl | HeLa 229 | cell growth or viability, MTT | – | 72 h | > 50 µM |
| O=C(O)c1cc(Oc2ccc([N+](=O)[O-])cc2)cc(Oc2ccc([N+](=O)[O-])cc2)c1 | H4 neuroglioma cells expressing APP K595N/M596L | Aβ42 secretion, inhibitor, MSD immunoassay, measured: Aβ42 | – | 24 h, 50% reduction level | 50 to 100 µM |
| Cc1ccc(NC(=O)CSc2nnc(-c3ccc(NC(=O)c4cccnc4)cc3)n2N)cc1 | RAW264.7 | NO release, inhibitor, Griess | – | LPS-stimulated | 2.6 µM |
| CCN1C(=O)C(n2nc(-c3c(O)c4ccccc4oc3=O)cc2-c2ccc(F)cc2)c2cc(Cl)ccc21 (stereo not drawn) | A-375 | cell growth or viability, SRB | – | 72 h | 82.6 µM |
| COC1=C(OC)[C@H](O)[C@H](C/C=C(\C)CC/C=C(\C)CCC=C(C)C)[C@@H](C)C1=O | Hep3B | cell growth or viability, MTS | – | 72 h | 8.9 µM |
| C=CCc1ccc(OCc2nn(CN3CCOCC3)c(=S)o2)c(OC)c1 | MCF7, SK-OV-3, PC-3 | cell growth, MTT | – | – | ≤ 10 µM |
| Fc1ccccc1/C=C/c1nc2ccccc2nc1Cl | HeLa 229 | cell growth or viability, MTT | – | 72 h | > 50 µM |
| Cc1cc(C#Cc2cccc(-c3nn(-c4nc(C(=O)O)cs4)c(CCC4CC4)c3Cc3ccc(S(N)(=O)=O)c(F)c3)c2)cs1 | MIA PaCa-2 | cell growth or viability | – | 48 h | 0.223 µM |
| Cc1cc(C)n(C(N)=S)n1.Cc1ccc(C(C)C)cc1.[Cl][Ru][Cl] | WM-115 | cell growth or viability, MTT | – | 48 h | 60.2 µM |
| C(=C\c1ccccc1)/c1ccccc1 | U-937 | cell growth or viability, ATP luminescence | – | 24 h | 340 µM |
| COc1cccc(/C=C/c2ccc(O)cc2)c1 | HL-60 | ROS generation, inhibitor, DCFH-DA | – | added: PMA | > 25 µg/mL |
| CCN1C(=O)C(n2nc(-c3c(O)c4ccccc4oc3=O)cc2-c2ccc(Br)cc2)c2cc(Cl)ccc21 (stereo not drawn) | A-375 | cell growth or viability, SRB | – | 72 h | 8.99 µM |
| CC(C)NC[C@@H](C(=O)N1CCN(c2ncnc3c2[C@H](C)C[C@H]3O)CC1)c1ccc(Cl)cc1 | cancer cell lines without alterations | cell viability, CellTiter-Glo | – | 4 days | 8.4 ± 0.48 µM |
| CCCNC(=O)Nc1ccc(S(=O)(=O)Oc2cccnc2Br)cc1 | MOLM-13 | cell growth or viability, MTT | – | 48 h | 5 µM |

| Molecule | cell line | test | system | setting | IC50 |
| --- | --- | --- | --- | --- | --- |
| COc1cc2ncnc(Nc3ccc(Cl)cc3F)c2cc1OC | H2030 (EGFR wild type) | cell viability, Alamar Blue | – | 120 h | > 10 µM |
| curcumin | HCT-116 (KRAS wild type, TP53 wild type) | cell viability, MTS | – | 72 h | 19.6 µM |
| C=CC(=O)N1CCC([C@@H]2CCNc3c(C(N)=O)c(-c4ccc(Oc5ccccc5)cc4)nn32)CC1 | SU-DHL-6 | cell growth or viability, CCK-8 | – | 72 h | 10.9 µM |
| CC(C)N(C(=S)[S][Sn]([S]C(=S)N(C(C)C)C(C)C)([c]1ccccc1)[c]1ccccc1)C(C)C | WIL2-NS | cell growth or viability, MTT | – | – | 2.6 µM |
| Cc1ccc(C)c(NC(=O)CSc2nnc(-c3ccc(NC(=O)c4cccnc4)cc3)n2N)c1 | RAW264.7 | IL-6 release, inhibitor, ELISA | – | LPS-stimulated | 9.64 µM |
| CCN1C(=O)C(n2nc(-c3c(O)c4ccccc4oc3=O)cc2-c2ccc(F)cc2)c2cc(Br)ccc21 (stereo not drawn) | A-375 | cell growth or viability, SRB | – | 72 h | 38.6 µM |
| COc1ccc(Nc2ncnc(-c3cccnc3Nc3cc(NC(=O)c4ccc(CN5CCN(C)CC5)cc4)ccc3C)n2)cc1 | Ba/F3 expressing BCR-ABL E255K | cell proliferation, inhibitor, trypan blue exclusion | – | 48 h, without IL-3 | < 0.5 µM |
| CCN(c1ccc(OC)cc1)c1nc(N)nc2[nH]c3ccccc3c12 | HeLa transfected with βIII-tubulin | cell growth, SRB | – | – | 0.0455 ± 0.001 µM |
| O=C(Nc1ccc(-c2n[nH]c(=S)n2N=Cc2c[nH]c3ccccc23)cc1)c1cccnc1 | RAW264.7 | IL-6 release, inhibitor, ELISA | – | LPS-stimulated | 49.7 µM |
| Cc1ncsc1-c1ccc(CNC(=O)[C@@H]2C[C@@H](O)CN2C(=O)[C@@H](NC(=O)C2(F)CC2)C(C)(C)C)c(OCCOc2ccc(CN3CCN(c4cc(-c5ccccc5O)nnc4N)CC3)cc2)c1 | NCI-H1568 SMARCA4-deficient | cell growth, CellTiter-Glo | – | 168 h | 0.068 µM |
| CCNC(=O)Nc1ccc(S(=O)(=O)Oc2cccnc2C)cc1 | MOLM-13 | cell growth or viability, MTT | – | 48 h | 9.7 µM |
| Ic1cccc2cnccc12 | axotomized mouse DRG neurons | NfL release, ELISA, measured: neurofilament light chain | culture supernatant | – | 1.9 µM |
| COc1cc(OC)c2cc(C(=O)NCCCN3CCOCC3)cc(O)c2c1 | C26, HepG2, MCF7 | cytotoxicity, MTT | – | range over three cell lines | 14.5 to 25.1 µM |
| CC(=O)OC[C@H]1O[C@@H]([S-])[C@H](OC(C)=O)[C@@H](OC(C)=O)[C@@H]1OC(C)=O.CCP(CC)CC.[Au+] | GIST882 | cell growth or viability | – | 72 h | 0.64 µM |
| COc1cc(OC)c(OC)cc1/C=C(\C(=O)c1cc(C)[nH]c(=O)c1C(=O)N1CCCCC1)c1cc(OC)c(OC)cc1OC | A-375 | cell proliferation, MTT | – | 72 h | > 10 µM |
| CCCN1CC(Oc2ccc([C@@H]3c4[nH]c5ccccc5c4C[C@@H](C)N3CC(C)(C)F)cc2)C1 | CAMA-1 | cell growth or viability | – | 7 days | 0.02 µM |
| O=C1C(=Cc2ccccc2)CN(C(=O)c2cccc(C(=O)N3CC(=Cc4ccccc4)C(=O)C(=Cc4ccccc4)C3)c2)CC1=Cc1ccccc1 | CEM T-lymphocytes | cell proliferation | – | 3 d | 36 ± 7.6 µM |
| CC(C)Oc1ccc(C(=O)Cn2ccnc2)cc1-n1c(CN2CCN(C(=O)COc3ccc(Cl)cc3)CC2)nc2ccccc2c1=O | SU-DHL-6 | cell viability, CellTiter-Glo | – | 24 h | < 0.1 µM |
| O=c1[nH]c2ccccc2nc1/C=C/c1ccc(F)cc1 | HeLa 229 | cell growth or viability, MTT | – | 72 h | > 50 µM |
| Cc1ccc(C)c(NC(=O)CSc2nnc(-c3ccc(NC(=O)c4cccnc4)cc3)o2)c1 | RAW264.7 | IL-6 release, inhibitor, ELISA | – | LPS-stimulated | 1.04 µM |
| O=c1c2ccccc2c(-c2nnc(SCNc3ccc([N+](=O)[O-])cc3)o2)nn1CNc1ccc([N+](=O)[O-])cc1 | WI-38 | MTT | – | 48 h | ~22 µM |

A few entries again:
| Molecule | cell line | test | system | setting | IC50 |
| --- | --- | --- | --- | --- | --- |
| C(=C\c1ccccc1)/c1ccccc1 | U-937 | cell growth or viability, ATP luminescence | – | 24 h | 340 µM |
| COc1cccc(/C=C/c2ccc(O)cc2)c1 | HL-60 | ROS generation, inhibitor, DCFH-DA | – | added: PMA | > 25 µg/mL |
| CCN1C(=O)C(n2nc(-c3c(O)c4ccccc4oc3=O)cc2-c2ccc(Br)cc2)c2cc(Cl)ccc21 (stereo not drawn) | A-375 | cell growth or viability, SRB | – | 72 h | 8.99 µM |
| CC(C)NC[C@@H](C(=O)N1CCN(c2ncnc3c2[C@H](C)C[C@H]3O)CC1)c1ccc(Cl)cc1 | cancer cell lines without alterations | cell viability, CellTiter-Glo | – | 4 days | 8.4 ± 0.48 µM |
| CCCNC(=O)Nc1ccc(S(=O)(=O)Oc2cccnc2Br)cc1 | MOLM-13 | cell growth or viability, MTT | – | 48 h | 5 µM |
| COc1cc2ncnc(Nc3ccc(Cl)cc3F)c2cc1OC | H2030 (EGFR wild type) | cell viability, Alamar Blue | – | 120 h | > 10 µM |
